Assay results of several laboratories.
A part holds a random share of what one study measured.
Sequence of UniProt Q8N2K1 (whole entry, looked up): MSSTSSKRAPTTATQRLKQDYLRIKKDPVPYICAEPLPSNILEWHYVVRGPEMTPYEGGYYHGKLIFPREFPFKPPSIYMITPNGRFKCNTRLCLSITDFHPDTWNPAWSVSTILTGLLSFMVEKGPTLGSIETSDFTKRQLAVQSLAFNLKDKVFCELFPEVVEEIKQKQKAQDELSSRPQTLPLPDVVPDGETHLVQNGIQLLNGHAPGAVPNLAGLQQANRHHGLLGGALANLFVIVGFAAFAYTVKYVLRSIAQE
Sequence of UniProt Q9C0C9 (whole entry, looked up): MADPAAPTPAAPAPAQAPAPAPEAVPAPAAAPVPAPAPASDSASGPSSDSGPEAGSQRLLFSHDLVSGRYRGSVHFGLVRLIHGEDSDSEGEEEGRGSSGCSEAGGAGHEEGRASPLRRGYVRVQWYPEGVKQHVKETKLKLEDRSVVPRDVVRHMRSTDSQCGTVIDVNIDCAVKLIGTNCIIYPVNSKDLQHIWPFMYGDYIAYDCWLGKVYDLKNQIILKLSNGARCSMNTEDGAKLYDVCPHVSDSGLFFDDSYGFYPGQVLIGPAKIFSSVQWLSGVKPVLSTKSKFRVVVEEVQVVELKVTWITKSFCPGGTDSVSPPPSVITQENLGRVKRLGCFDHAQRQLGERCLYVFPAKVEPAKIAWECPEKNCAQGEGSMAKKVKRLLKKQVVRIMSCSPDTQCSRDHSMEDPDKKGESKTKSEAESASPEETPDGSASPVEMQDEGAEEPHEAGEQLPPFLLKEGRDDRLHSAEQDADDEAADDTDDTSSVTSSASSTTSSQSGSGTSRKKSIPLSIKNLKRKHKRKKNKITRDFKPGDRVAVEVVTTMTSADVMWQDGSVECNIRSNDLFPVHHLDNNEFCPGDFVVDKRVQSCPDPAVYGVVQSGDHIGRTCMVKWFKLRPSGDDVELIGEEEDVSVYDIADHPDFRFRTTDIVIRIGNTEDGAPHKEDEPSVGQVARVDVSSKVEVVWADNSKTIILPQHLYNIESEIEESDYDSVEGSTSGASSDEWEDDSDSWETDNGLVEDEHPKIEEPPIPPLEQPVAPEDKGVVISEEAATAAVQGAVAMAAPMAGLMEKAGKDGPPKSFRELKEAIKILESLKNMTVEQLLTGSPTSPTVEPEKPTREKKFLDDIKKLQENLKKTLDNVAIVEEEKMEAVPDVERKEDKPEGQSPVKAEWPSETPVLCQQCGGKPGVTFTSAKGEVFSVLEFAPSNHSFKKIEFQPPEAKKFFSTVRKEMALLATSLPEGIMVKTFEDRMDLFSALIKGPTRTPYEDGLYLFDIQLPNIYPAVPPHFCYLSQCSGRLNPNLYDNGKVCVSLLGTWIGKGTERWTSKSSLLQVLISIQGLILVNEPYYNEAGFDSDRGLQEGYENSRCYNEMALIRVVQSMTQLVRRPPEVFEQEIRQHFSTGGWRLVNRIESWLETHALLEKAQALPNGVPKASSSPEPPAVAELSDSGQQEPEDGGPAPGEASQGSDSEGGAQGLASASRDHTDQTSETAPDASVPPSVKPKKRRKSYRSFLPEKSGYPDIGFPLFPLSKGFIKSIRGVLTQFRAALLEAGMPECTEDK
Sequence of UniProt P63146 (whole entry, looked up): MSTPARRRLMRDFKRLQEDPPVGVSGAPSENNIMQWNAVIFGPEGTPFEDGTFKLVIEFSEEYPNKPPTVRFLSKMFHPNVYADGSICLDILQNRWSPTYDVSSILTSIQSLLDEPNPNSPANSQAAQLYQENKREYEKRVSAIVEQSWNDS
Sequence of UniProt O00762 (whole entry, looked up): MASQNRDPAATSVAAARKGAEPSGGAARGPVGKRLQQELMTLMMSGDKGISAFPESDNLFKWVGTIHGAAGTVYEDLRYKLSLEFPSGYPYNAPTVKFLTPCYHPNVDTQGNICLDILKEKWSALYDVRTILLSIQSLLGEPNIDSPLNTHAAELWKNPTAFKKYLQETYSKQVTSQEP
Sequence of UniProt Q9NPD8 (whole entry, looked up): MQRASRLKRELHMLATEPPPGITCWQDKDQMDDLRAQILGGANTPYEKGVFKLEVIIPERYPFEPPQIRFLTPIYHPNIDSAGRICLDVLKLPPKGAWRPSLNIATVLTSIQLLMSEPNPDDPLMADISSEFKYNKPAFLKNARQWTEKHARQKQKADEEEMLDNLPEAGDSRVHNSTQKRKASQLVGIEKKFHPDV
Sequence of UniProt Q16763 (whole entry, looked up): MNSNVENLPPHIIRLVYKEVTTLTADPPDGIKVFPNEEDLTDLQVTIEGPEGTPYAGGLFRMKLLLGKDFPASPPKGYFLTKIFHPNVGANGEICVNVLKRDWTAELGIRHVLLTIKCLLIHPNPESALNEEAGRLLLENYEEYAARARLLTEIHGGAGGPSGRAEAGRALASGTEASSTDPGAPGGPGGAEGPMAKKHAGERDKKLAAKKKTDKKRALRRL
Sequence of UniProt Q712K3 (whole entry, looked up): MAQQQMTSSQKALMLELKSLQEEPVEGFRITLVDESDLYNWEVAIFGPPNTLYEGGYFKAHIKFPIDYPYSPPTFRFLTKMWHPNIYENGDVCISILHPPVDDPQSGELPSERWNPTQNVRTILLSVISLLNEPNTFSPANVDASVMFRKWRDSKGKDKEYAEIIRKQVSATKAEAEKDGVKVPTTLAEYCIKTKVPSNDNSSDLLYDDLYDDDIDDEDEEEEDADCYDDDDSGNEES
Sequence of UniProt Q7Z7E8 (whole entry, looked up): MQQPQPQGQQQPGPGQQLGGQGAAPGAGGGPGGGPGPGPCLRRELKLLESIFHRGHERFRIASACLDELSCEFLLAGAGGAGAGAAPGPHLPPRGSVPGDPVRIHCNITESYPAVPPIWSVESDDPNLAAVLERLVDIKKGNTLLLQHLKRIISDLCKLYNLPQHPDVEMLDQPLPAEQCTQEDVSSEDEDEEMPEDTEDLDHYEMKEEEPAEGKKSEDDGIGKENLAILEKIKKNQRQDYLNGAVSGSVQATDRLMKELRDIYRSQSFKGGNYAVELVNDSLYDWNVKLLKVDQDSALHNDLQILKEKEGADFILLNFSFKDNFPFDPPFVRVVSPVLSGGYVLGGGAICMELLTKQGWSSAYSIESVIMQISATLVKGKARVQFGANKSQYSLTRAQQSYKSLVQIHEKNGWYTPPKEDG
Sequence of UniProt Q9Y385 (whole entry, looked up): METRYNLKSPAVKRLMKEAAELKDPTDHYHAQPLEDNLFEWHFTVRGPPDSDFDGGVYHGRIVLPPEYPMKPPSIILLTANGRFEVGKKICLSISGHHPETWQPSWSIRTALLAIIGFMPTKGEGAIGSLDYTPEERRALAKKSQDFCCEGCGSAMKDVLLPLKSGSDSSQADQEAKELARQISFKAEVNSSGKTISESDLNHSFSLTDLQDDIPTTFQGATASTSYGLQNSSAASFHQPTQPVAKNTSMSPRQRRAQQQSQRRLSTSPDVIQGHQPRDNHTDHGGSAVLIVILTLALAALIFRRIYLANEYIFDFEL
Sequence of UniProt P68036 (whole entry, looked up): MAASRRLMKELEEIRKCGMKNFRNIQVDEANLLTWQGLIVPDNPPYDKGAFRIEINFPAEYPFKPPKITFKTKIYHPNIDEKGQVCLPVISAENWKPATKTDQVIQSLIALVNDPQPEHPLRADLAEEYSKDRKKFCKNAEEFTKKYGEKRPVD
Sequence of UniProt Q9H832 (whole entry, looked up): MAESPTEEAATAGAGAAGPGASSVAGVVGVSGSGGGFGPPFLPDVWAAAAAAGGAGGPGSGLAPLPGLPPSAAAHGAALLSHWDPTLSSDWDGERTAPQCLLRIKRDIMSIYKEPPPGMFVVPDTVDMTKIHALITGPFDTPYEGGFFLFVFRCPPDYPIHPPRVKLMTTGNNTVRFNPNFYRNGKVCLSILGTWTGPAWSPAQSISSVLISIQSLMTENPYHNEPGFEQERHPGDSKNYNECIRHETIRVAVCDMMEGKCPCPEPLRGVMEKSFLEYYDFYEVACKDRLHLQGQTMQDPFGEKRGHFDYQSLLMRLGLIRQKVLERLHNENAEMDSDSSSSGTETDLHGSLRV
Sequence of UniProt P62253 (whole entry, looked up): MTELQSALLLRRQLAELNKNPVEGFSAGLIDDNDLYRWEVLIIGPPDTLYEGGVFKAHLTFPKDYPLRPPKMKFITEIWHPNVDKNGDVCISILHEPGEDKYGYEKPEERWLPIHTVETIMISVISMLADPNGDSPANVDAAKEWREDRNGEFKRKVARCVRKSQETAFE
Sequence of UniProt P51668 (whole entry, looked up): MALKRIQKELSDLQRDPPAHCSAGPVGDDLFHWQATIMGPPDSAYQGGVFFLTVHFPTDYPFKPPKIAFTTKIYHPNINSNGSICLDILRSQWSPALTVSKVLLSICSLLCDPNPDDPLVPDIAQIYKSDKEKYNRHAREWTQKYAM
Sequence of UniProt P61081 (whole entry, looked up): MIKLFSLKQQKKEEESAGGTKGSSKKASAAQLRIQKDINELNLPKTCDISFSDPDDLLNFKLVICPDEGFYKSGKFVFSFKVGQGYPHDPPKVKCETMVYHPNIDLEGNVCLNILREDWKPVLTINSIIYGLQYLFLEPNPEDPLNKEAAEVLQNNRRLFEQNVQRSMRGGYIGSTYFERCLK
Sequence of UniProt Q969T4 (whole entry, looked up): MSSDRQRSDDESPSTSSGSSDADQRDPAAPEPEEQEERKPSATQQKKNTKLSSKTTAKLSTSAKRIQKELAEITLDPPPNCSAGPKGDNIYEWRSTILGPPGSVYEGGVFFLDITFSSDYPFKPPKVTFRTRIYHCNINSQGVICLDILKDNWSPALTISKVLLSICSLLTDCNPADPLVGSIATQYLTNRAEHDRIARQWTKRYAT

Block 1
Molecule: RNF141 RING domain (UniProt Q8WVD5)
Sequence of UniProt Q8WVD5 (whole entry, looked up): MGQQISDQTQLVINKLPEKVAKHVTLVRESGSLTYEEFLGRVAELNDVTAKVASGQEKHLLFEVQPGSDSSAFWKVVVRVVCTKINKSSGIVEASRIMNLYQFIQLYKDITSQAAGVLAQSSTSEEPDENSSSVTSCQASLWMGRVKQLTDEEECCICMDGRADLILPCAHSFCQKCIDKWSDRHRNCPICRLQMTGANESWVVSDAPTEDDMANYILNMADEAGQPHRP
Method: yeast two-hybrid
Medium: yeast
Notes: mostly zero background
Relative to: not given
Reading: higher = stronger interaction
target	lacZ reporter activity
UBE2L3 UBC core domain (UniProt P68036)	0
UBE2Q1 UBC core domain (UniProt Q7Z7E8)	0
UBE2I UBC core domain (UniProt P63279)	0
UBE2J2 UBC core domain (UniProt Q8N2K1)	0
BIRC6 UBC core domain (UniProt Q9NR09)	0
UBE2R2 UBC core domain (UniProt Q712K3)	0
UBE2M UBC core domain (UniProt P61081)	0
UBE2C UBC core domain (UniProt O00762)	0
UBE2G1 UBC core domain (UniProt P62253)	0
UBE2T UBC core domain (UniProt Q9NPD8)	0
UBE2Z UBC core domain (UniProt Q9H832)	0
UBE2B UBC core domain (UniProt P63146)	0
UBE2J1 UBC core domain (UniProt Q9Y385)	0
UBE2D1 UBC core domain (UniProt P51668)	0
UBE2S UBC core domain (UniProt Q16763)	0
UBE2E3 UBC core domain (UniProt Q969T4)	0
UBE2O UBC core domain (UniProt Q9C0C9)	0

Block 2
Target: PABPC1L2, full length, GST fusion (mouse, UniProt A0ABA7IW68)
Method: RNAcompete
Form: RNA
Medium: in vitro
Tested at: 20 nM
Notes: 7-mer, probes averaged, single round
Relative to: mean of 7-mers
Reading: higher = stronger binding
Residues (chain): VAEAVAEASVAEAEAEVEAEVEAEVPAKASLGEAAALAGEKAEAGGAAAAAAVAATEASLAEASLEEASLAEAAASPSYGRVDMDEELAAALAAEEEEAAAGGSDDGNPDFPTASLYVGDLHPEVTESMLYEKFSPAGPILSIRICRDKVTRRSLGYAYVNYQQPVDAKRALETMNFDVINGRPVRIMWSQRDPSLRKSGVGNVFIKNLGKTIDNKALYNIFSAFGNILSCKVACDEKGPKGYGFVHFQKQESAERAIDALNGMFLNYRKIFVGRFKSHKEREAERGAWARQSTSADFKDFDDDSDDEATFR
Sequence	7-mer Z-score
CUCCCUC	-0.412
CUCGUGU	-0.42
UAUUGCC	-0.318
CGCGAUG	-0.153
UAUAUAA	0.164
UUGUACC	-0.458
CAUAAGA	0.0315
AUAUGCC	-0.0428
UAGGGGC	0.323
CAGCAAG	0.0134
GGUAGGU	0.126
GAUCCUA	-0.159
GCUGGCA	0.0605
AAAGUCC	0.635
GUGCUCU	-0.132
CGGCUCC	-0.302
CACGUAA	-0.117
GUGGCAA	0.321
UCUCACG	-0.282
CAGGUGC	0.0533
UCCAAGA	-0.021
AGGUAGG	0.314
UACUACC	-0.273
AGAUCUG	-0.257
CGGCGGU	-0.0518

Block 3
Target: Hepatocyte nuclear factor 3-alpha (Foxa1, Mus musculus, UniProt P35582, residues 1-468, full length assumed)
Method: EMSA with sequencing
Form: double-stranded DNA, one strand shown
Medium: in vitro
Tested at: 10 and 20 nM
Notes: whole designed probe, mean of two concentrations, ends assumed
Relative to: negative control set to 0
Reading: higher = stronger binding
Shared flanks, not repeated: GTGAGCGGTGCCCATTGATGGGGAAC … TTTCACTGGGATCGTGGGGAC
Construct (chain): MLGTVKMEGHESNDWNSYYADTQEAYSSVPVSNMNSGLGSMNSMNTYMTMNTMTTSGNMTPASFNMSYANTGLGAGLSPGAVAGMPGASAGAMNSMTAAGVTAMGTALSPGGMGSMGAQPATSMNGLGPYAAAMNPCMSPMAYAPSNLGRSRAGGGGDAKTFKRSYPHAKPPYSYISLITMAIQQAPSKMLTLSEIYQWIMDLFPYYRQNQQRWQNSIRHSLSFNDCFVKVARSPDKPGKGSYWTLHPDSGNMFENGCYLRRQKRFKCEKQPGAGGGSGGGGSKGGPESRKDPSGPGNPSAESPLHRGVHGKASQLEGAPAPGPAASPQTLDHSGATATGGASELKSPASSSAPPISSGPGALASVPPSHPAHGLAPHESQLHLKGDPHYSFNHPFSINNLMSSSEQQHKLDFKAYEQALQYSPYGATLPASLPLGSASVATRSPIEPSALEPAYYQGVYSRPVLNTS
Sequence	normalised bound fraction
CAAGGCTGCTCACCCACTTCTTTAACCATTCTTCAAAAAAGTGAGCTGTTGTTATTGAACTTTTTATTATTACTTAATTACAAGAAAAAACAAAGTAAACAACCAAAAAAAATATAGTGTTGAGAAAATGCCAAGGCTGTTCACCCACTTCTTTAACCATTCTTCAAATTTACCATATATATATTTTTTTGAC	0.38 ratio
ATCTTCCCCCTCTTCCTTGCCCCACCAGCTCACCTTCCCGGGTTATTTGCACAAAGGAAAATAAATAAAGCCGGCATTCGTTAACGCAGTTCTGGCGCAAACTGCTGTTTGCTCTGCATCTAACATGGTCCTTACGCGACGCCAGGCTCCGGGAGAGCAAAGCACCGTGTCAGGCGCATGATCCGGGGTGGCC	0.384 ratio
GAAGGAAATAATGGAGCCAACCATGCATATAACCTCAGGGAGAACATTCTAGGTAGAGGGAACAGCAAGTGCAAAGGCCCTGAAGTGGGGGTTTGTTTACCTTCTGCACACAGTTGCACAATGGCCAGTACAATTGGAATGGATGGGAAATGTAAAAGAGAGAAGTTGAAAAGGCCAGGTGCAGTGGCTCATG	0.411 ratio
GCTCCTCACCCCCAACTGGGGGCCTGAGTAGGGACAGCACAGAGGCTGGTGCCTGCTGCTCTTCAGTCTCTGTTTCCACGGCTCAAACCAAAGTAAACAACAGAATGGCCATGTAGGTGCAAAGTACCAATGACAGCATGGACCCTTGGGTGGGCTCCAACACTCACCCTAATAAAGCTGGGGAGGAAGGGGC	0.434 ratio
CTTTGAGTTTTCAGAGTGACTCAACACAGTTGAACTATGAATCACTTCAGTATTGTCTGTGCACACCAAAGCCCTGGCATATGGAGCAGGAGAGTACTCTAGAAAGCTCTTTCCCAGCCCTGAGCTCTCAGAGCTTTCCCTAGGTGTGTGATGAGGCCACTTTCCCCCATCACTTCCCCAAGTCTAGATGTCC	-0.0402 ratio
AAGTTATTACATAATGATAAAGGGGCTGATTCAGCAAGAAGATACAAGTATAAATATATATGCAATCAACACTGGAGCACCCAGATATATAAAGTAATTTTTATCAGAGCTAAAGAGAGAGAGACCTCAGTACAATAATAGCTAGAGACTTTAACACCCCACCTTCAGCAACGGACATATCTCCCAGACAGAA	0.545 ratio
ATACAGGTTTTATAACATATGTAGTTAAGGTTTCTAAAGTGAGATTATGTCTCAACTAACTATAACTGAAATAGAAGAGTGTATCTATTCCAATGTAATCTAGATGACTGATAATGAGAAAAATGATCCTTATAAAGAATAGCAAATCATGATCCTGAGAGAGTAAGTATCAAAGCTGATGGGAGGATGCTAT	-0.0514 ratio
GTGTGCTAGCCTGTGAGTTTTTCTCTCCAACTAGCCTGGGTACTCAGGAAAGTGAGATCAACTTCTGGGTGGCCTTGCGTCTAGCTGACCTGTGCAAATAGGGGAGACAGTTGACATACAGATGAAAGGGGAGATGGGAAGCCATACAGAGGAAGGAGAAGATCAGGAACCAGAGATAAGATAATTCTGTAAA	0.181 ratio

Block 4
Target: Histone acetyltransferase KAT6A, both winged helices, GST fusion (KAT6A, Homo sapiens, UniProt Q92794, residues 1-181)
Method: protein binding microarray
Form: double-stranded DNA, one strand shown
Medium: in vitro
Tested at: not given
Notes: 8-mer, flanks averaged, mean of 2 arrays, mostly near background
Relative to: not given
Reading: higher = stronger binding
Target sequence (chain): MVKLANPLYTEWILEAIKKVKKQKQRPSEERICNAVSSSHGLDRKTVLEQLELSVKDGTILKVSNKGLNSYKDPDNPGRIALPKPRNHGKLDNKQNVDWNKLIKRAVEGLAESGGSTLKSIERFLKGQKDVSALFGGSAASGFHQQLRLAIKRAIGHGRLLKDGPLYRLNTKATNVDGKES
Sequence	E-score
TGTCGGAA	0.0883
CCAGCAAA	-0.114
CTGGGGAC	-0.298
CTAGCACA	-0.0808
AGGTGGTG	-0.188
AGTATAGA	-0.0403
CCAACCCC	-0.233
CACATTCG	0.105
AAATAATT	0.022
CCCAGGCG	-0.131
GACAACGC	0.112
TTCCGGAA	0.205
CTAATGAG	-0.0863
CCGTGAGA	0.236
ATAGATAC	-0.0685
AAAGCTCG	-0.0959
CTATCAAC	0.0613
CATCGACC	0.038
GGTGGGAA	-0.11
AAGGTGTA	-0.0475
GCCTTAGC	0.0484
ATCCAAAA	-0.0565
AGGAGACT	-0.185
AATGCCAC	-0.226
ACTCACTG	-0.163

Block 5
Target: RNA binding protein fox-1 homolog 2, RRM domain, GST-SBP tag (RBFOX2, Homo sapiens, UniProt O43251-10, residues 100-194)
Method: RNA Bind-n-Seq
Form: RNA
Medium: in vitro
Tested at: 365 nM
Notes: natural RNA segment, single round, ends assumed
Relative to: no-protein control
Reading: higher = stronger binding
Shared flanks, not repeated: GGGAGUUCUACAGUCCGACGAUC … UGGAAUUCUCGGGUGCCAA
Residues (chain): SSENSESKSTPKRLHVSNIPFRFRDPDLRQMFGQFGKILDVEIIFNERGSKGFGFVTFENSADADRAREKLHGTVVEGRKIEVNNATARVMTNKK
Sequence	RBNS enrichment (R)
CUCCGGAGCACUUCAUUGACCUCUUCAAGUUUGAUGGUGCACUCAGCCCCGUGCCCUUGUCUACAGCUGUCCCUUGUGCUUUCUGUGUCGUGUAGUUGGUGUGAGUAUUC	0.363
UAAGAAAAGAAAAAAGAAAGGAAAGGGGAUUAAUUUAGUGAAAGAUGAUUUUGCUCCUAGUUUUGAUUUCUGCCAGGAUUGAAUUAUUUCAAAAUCUCCUGUGUUUUUUA	1.25
GGCUUUGUUUCAGCCUGGAAGUGAGGGCUCUGGAGAUGGAGAUAGGAGCCAUAAGCUCUCCUUCAGACGGUGAGGCGGCUCCUGCCUCCUGCUACUGAAAUCUGCAGACA	0.439
ACUCGUUUCUAGGGUUUUUUAUUUGCAGUUUAGGAACUAUUAGGAAUGUCAGGACUUUAUCAGCAGGGGUAAAACUACCACCUGGCCUAGCCUAAGUAGGAAGUGAAAAG	0.747
AAACAUUUCCUAAAGUUGAAGCAAUAGCUUCGUAGAUUCUUGGUUACUUUAUUUUUUUUAAUGCUUUACAUUUGAUACAACUAUUGAAGAUCAAUUUUAAAAAUAGCUUU	0.713
GUUUGUUUCUGGGUACUUUGCGCCUCUGGGGUGCUAGAGGUGGGGCAUGGUGGCUGGAAGUAAAACUGCCAACUCUGGCCCUCAGAACUCUCAGGUAUAGAAGCCCAGGA	0.367
GUACAAAUCAGCACCCACAUCCCCUUUCUUGACAAAUGAUUUUUCUAGAGAACUAUGUUCUUCCCUGACUUUAGGGAAGGUGAAUGUGUUCCCGUCCUCCCGCAGUCAGA	0.551
UUGUUUCUGUUCUUUUCCAUCCACUUUGUACUCAUUUGUUUUCAUUAAAUUUUGCAUUUAUUUUGAGUUUUUCAUGGUGUCAUUUUUGGGCAGUAGCUUCGCUGCUUCAG	0.494
CACCCUCUGCUGCUUAGUGCUUGGGUACCUCUUGCAAUAACCAGCUCUUAGUUGUUCCCUUUCCCUGGGGCUUUUCCAUUUAACACAUGGAGCCCUUCCCCCAGAAGGCU	0.218
CGUAUAUUUAGAACUGCACUUUGUCCACAACCUUCCCUUCUCUUUCUAUUCCCCAGUGAACUGAGGUUUUUACCGAUUUAUAGAGCAGUCAAAUCCGAAGUGCUCGAGUG	0.383
AUCUUAGAGGAGGGAAGAAGAGAGAGAGACCCAAUGGUAGAACCAGAAUCAGGGAGAUGACUGAACUACUGAAAAACAGGUUCCCUUGUAUUUAGGAUCUUAAGGUGUAU	1.25
UUGGGGUCAAGGAACAUUUCAGUGGGUUUUUGCCCCAUCUCCUCCUCCCGUCCCCUGCUCAUGGGACAUGUUAUCUUUCUUAAUUCUCCUGCCGCCGCCGCCACCACCAC	1.01
